Measurements gathered from unrelated publications.
≈ marks a conversion by molar mass, not a printed value.
Chain of UniProt Q14524 (whole entry, looked up): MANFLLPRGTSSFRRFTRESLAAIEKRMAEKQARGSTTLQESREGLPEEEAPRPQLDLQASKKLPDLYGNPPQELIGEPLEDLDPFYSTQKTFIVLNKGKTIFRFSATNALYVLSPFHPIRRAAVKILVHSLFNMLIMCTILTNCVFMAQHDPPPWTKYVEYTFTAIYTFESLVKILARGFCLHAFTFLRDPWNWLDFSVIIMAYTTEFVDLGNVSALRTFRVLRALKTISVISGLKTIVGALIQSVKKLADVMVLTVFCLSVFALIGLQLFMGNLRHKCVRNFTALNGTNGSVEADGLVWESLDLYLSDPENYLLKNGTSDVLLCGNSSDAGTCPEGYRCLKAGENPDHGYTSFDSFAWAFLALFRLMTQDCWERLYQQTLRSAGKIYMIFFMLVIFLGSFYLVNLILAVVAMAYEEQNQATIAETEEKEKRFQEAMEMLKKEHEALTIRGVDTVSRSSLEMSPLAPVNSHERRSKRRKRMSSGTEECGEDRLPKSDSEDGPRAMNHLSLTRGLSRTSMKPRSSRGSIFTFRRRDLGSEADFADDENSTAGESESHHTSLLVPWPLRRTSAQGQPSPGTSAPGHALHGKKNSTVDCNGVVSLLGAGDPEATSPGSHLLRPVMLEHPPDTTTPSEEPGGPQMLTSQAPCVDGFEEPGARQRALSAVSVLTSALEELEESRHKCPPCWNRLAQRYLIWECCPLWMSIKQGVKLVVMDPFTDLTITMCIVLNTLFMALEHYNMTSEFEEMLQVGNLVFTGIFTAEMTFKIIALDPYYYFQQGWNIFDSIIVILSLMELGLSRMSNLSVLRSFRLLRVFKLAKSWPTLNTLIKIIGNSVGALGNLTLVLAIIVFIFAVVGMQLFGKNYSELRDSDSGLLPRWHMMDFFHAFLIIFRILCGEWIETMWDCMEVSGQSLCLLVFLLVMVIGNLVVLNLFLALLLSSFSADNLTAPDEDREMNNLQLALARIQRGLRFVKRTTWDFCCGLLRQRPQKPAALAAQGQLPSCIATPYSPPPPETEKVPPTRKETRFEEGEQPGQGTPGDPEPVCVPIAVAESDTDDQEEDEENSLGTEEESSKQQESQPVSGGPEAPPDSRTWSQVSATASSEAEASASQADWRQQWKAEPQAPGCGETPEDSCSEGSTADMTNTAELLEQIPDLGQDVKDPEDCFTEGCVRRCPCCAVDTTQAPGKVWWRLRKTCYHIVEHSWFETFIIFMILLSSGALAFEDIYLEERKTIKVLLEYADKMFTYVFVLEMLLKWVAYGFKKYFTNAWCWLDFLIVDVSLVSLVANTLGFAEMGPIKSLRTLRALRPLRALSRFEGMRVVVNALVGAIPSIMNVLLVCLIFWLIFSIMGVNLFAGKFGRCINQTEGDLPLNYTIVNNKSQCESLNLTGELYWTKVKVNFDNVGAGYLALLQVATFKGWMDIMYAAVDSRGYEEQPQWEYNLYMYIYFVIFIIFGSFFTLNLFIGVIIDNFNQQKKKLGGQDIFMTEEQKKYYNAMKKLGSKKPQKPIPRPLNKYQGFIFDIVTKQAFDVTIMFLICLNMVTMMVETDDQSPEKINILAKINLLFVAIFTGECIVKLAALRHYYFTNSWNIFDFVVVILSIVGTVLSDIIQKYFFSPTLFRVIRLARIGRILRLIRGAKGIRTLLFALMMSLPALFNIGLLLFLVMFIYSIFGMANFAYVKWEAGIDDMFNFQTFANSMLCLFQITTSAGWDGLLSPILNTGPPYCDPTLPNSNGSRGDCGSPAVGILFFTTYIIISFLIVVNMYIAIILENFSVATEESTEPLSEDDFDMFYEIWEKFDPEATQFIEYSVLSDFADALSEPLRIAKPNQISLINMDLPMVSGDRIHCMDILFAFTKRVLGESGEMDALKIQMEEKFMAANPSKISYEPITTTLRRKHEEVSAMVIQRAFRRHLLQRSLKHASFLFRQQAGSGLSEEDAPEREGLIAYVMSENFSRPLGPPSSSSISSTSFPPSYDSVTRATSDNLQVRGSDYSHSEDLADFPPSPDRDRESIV
Chain of UniProt Q92772 (whole entry, looked up): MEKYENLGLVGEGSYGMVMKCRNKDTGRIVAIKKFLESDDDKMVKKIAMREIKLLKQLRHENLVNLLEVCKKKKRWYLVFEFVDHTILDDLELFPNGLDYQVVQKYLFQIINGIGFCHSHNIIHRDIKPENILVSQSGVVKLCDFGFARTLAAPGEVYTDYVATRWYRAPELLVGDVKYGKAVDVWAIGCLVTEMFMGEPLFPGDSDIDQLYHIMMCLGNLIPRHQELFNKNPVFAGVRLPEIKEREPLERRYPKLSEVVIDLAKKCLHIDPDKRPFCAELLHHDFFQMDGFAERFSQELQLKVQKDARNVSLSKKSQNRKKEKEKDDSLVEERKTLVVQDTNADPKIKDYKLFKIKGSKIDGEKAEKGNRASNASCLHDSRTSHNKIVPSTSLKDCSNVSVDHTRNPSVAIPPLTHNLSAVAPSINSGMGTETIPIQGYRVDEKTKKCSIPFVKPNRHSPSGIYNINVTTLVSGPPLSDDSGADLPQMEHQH
Chain of UniProt Q8TCC7 (whole entry, looked up): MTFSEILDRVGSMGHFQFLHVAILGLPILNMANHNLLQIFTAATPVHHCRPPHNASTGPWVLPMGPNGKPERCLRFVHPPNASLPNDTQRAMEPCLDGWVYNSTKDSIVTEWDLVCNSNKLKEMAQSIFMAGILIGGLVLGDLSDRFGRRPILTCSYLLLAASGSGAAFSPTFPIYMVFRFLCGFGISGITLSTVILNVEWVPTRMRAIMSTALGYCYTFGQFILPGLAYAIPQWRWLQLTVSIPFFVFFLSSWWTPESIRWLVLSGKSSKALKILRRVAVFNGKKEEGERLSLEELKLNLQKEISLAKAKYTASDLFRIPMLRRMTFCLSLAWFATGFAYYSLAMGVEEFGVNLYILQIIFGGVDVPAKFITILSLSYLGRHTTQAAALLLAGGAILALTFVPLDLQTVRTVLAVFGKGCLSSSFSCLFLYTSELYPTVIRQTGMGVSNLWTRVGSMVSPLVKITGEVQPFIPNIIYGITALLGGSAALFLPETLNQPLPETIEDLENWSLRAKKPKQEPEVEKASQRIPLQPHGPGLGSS
Chain of UniProt P00519 (whole entry, looked up): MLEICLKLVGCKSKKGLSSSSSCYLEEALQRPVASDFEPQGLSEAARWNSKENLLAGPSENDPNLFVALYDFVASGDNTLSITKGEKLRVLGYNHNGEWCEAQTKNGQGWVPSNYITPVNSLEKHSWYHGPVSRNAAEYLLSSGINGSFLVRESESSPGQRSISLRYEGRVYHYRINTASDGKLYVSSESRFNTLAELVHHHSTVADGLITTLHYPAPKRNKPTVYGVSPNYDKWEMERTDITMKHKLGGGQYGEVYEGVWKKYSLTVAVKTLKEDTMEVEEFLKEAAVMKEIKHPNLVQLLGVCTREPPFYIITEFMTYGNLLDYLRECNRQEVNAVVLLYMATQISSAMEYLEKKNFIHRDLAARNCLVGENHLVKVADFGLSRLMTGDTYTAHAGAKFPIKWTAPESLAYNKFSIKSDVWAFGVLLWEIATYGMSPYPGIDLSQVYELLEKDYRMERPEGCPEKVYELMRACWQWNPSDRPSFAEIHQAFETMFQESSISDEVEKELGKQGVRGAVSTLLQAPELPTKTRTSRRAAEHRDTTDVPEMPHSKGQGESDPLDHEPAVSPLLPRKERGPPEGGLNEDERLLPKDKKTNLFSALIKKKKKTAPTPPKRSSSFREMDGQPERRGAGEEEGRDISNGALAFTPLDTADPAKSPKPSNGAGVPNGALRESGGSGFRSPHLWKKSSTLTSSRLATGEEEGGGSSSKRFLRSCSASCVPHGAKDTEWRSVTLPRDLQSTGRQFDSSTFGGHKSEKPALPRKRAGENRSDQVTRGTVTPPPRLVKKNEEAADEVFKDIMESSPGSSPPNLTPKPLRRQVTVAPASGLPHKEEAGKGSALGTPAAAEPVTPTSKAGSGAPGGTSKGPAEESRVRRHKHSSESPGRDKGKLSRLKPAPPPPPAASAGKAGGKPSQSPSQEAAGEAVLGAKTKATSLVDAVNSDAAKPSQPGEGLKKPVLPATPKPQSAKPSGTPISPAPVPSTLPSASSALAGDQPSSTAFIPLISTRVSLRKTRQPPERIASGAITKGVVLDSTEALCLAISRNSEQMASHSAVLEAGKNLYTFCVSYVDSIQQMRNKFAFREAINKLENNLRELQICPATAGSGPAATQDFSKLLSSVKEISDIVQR

SMILES	tested on	test	test system	setting	measurement	value
COC(=O)c1cc(-c2ccc(NC(=O)Nc3ccc(Cl)c(Cl)c3)cc2)on1	Mycobacteroides chelonae	microbial growth, broth dilution	ATCC35752	48 h	MIC	> 64 µg/mL
CC[C@H](C)CCCCC(=O)N[C@@H](CCN)C(=O)N[C@H](C(=O)N[C@@H](CCN)C(=O)N[C@H]1CCNC(=O)[C@H]([C@@H](C)O)NC(=O)[C@H](CCN)NC(=O)[C@H](CCN)NC(=O)[C@H](CC(C)C)NC(=O)[C@@H](CC(C)C)NC(=O)[C@H](CCN)NC1=O)[C@@H](C)O			male Sprague-Dawley rat, plasma	intravenous, 5 mg/kg	AUC(0-inf)	12500 ng·h/mL
COc1ccc([C@@]23Oc4cc(OC)cc(OC)c4[C@@]24N=C(C2CC2)N[C@@]4(O)[C@H](C(=O)N(C)OC)[C@H]3c2ccccc2)cc1		metabolic stability	human, liver microsomes	1 µM, pH 7.4	microsomal CLint	75.9 µL/min/mg
COc1ccc2c(c1)[C@]13CCCC[C@@H]1[C@H](C2)N(C)CC3			human, hepatocytes	4 h, pH 7.4	fraction unbound	1
C[C@H]1COc2c(N3CCN(C)CC3)c(F)cc3c(=O)c(C(=O)O)cn1c23	Pseudomonas aeruginosa	microbial growth, broth dilution	ATCC27853		MIC	1 µg/mL (≈ 2.77 µM)
Cn1cc2c3c1C(=O)C(N)=CC3=NCC2	HEK293	cell growth or viability, MTT		72 h	CC50	2000 nM
Nc1c2c(nc3c1C(c1ccc(Cl)c(Cl)c1)c1ccc(OCC(=O)c4ccccc4)cc1O3)CCCC2 (centres unmarked)	SH-SY5Y	cell growth or viability, MTT		6.3 µM	viability	58.5%
CC(C)C[C@H](NC(=O)[C@H](Cc1ccccc1)NC(=O)[C@H](Cc1ccccc1)NC(=O)Cc1ccc(-c2ccccc2)cc1)C(=O)N[C@@H](CCCCN)C(=O)N[C@@H](CCCNC(=N)N)C(=O)N[C@H](C(=O)N[C@@H](Cc1c[nH]c2ccccc12)C(=O)N[C@@H](CCCCN)C(=O)N[C@@H](CCCNC(=N)N)C(=O)O)C(C)C		metabolic stability	dog, liver microsomes	30 min	compound remaining	65.1%
COc1ccc(S(=O)(=O)Oc2ccc3c(c2)Oc2nc4c(c(N)c2C3c2cccc(OC)c2)CCCC4)cc1 (centres unmarked)	SH-SY5Y	cell growth or viability, MTT		25 µM	viability	60.9%
O=C(O)C(F)(F)C(F)(F)C(F)(F)C(F)(F)C(F)(F)C(F)(F)C(F)(F)F	SLC22A8 (Homo sapiens, UniProt Q8TCC7)	transporter uptake, substrate	HEK293	2.5 min, pH 7.4	Km	88.4 µM
Nc1c2c(nc3c1C(c1cccc([N+](=O)[O-])c1)c1ccc(OCC(=O)c4ccc(Cl)cc4)cc1O3)CCCC2 (centres unmarked)	SH-SY5Y	cell growth or viability, MTT		1.6 µM	viability	80.2%
Cc1cccc(C)c1NC(=O)C1CCCCN1 (centres unmarked)	SCN5A (Homo sapiens, UniProt Q14524)	ion current, inhibitor, patch clamp		100 µM	inhibition	23.4%
[2H]c1c([2H])c([C@]2([2H])CCCN2C(=O)C(C)(C)Oc2ccc3cn[nH]c3c2)c([2H])c([2H])c1C([2H])([2H])[2H]	CDKL2 (Homo sapiens, UniProt Q92772)	binding, competition with immobilised ligand		1 µM	remaining binding	64%
Cc1ccc(S(=O)(=O)Oc2ccc3c(c2)Oc2nc4c(c(N)c2C3c2ccc(Cl)c(Cl)c2)CCCC4)cc1 (centres unmarked)	SH-SY5Y	cell growth or viability, MTT		0.4 µM	viability	89.5%
C[C@]12CC[C@H]3[C@@H](CC=C4CC(O)CC[C@@]43CO)[C@@H]1CCC2O (some centres unmarked)			rat, plasma	intraperitoneal, 20 mg/kg	Cmax	6960 ng/mL
Cc1nn(C)cc1-c1nc2c(N3CCN(Cc4ccc(Cl)cc4)CC3)c(Cl)cnc2[nH]1	Tyrosine-protein kinase ABL1, non-phosphorylated (ABL1, Homo sapiens, UniProt P00519)	binding, competition with immobilised ligand		1 µM	remaining binding	94%
Nc1ncc(-c2nc(N3CCOCC3)nc(N3CCOCC3)n2)c(C(F)F)n1	EGFR (Homo sapiens, UniProt P00533, del747-752/P753S)	cell-free assay, competition with immobilised ligand		10 µM	remaining binding	85%
